Measurements collected from several papers.
Parts stem from different laboratories: compare values within a part only. ± marks the error that the study gave.
Sequence of UniProt P41586 (whole entry, looked up): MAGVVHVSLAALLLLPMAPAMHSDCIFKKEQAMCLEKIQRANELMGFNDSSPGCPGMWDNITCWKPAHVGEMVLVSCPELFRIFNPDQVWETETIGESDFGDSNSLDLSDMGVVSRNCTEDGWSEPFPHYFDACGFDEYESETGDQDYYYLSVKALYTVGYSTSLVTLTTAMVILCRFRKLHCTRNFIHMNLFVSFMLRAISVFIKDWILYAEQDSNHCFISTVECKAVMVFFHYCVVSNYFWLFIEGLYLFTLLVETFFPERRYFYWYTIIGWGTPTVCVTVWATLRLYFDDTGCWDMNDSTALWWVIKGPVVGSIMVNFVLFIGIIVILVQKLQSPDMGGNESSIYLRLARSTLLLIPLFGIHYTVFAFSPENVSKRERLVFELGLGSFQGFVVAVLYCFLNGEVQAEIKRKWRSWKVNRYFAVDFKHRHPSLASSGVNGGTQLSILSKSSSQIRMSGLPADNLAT

Block 1
SMILES: O=C1NC2(CC2)COc2ncc(F)cc2[C@H]2COCCN2c2ccn3ncc1c3n2
Species: Sprague-Dawley rat, female
Medium: serum
Route: oral
Time: 4 weeks daily
| conditions | glucose [mmol/L] |
| --- | --- |
| 20 mg/kg/day, end of treatment | 6.47 ± 1.77 |
| 20 mg/kg/day, end of recovery period | 7.56 ± 0.96 |
| 5 mg/kg/day, end of treatment | 7.83 ± 0.78 |

Other studies, line by line
| SMILES | target or system | test | system | conditions | scale | quantity | value |
| --- | --- | --- | --- | --- | --- | --- | --- |
| CC(=O)N[C@@H](CC(C)C)C(=O)N[C@H](C(=O)N[C@@H](Cc1ccccc1)C(=O)N[C@]1(C)CCCCCC/C=C/CCC[C@@](C)(C(=O)N[C@@H](C)C(=O)N[C@@H](C)C(=O)N[C@@H](C)C(=O)N[C@@H](C)C(=O)N[C@@H](C)C(=O)N[C@H](C)C(N)=O)NC(=O)[C@H](CC(C)C)NC(=O)[C@H](CCCCNC(=O)CCNC(=O)C[C@@H]2N=C(c3ccc(Cl)cc3)c3c(sc(C)c3C)-n3c(C)nnc32)NC(=O)[C@H](C)NC(=O)[C@H](Cc2c[nH]c3ccccc23)NC(=O)[C@H](Cc2ccc(O)cc2)NC(=O)[C@H](C)NC1=O)[C@@H](C)O |  | equilibrium dialysis | mouse plasma | 2 µM, 6 h, 37 °C |  | fraction unbound | 0.0271 |
| CSCC[C@H](NC(=O)[C@H](CCC(N)=O)NC(=O)[C@H](CCCCN)NC(=O)[C@H](CCCNC(=N)N)NC(=O)[C@H](Cc1ccc(O)cc1)NC(=O)[C@H](CCCNC(=N)N)NC(=O)[C@H](CO)NC(=O)[C@H](Cc1ccc(O)cc1)NC(=O)[C@H](CO)NC(=O)[C@H](CC(=O)O)NC(=O)[C@@H](NC(=O)[C@@H](N)Cc1ccccc1)[C@@H](C)O)C(=O)N[C@@H](C)C(=O)N[C@H](C(=O)N[C@@H](CCCCN)C(=O)N[C@@H](CCCCN)C(=O)N[C@@H](Cc1ccc(O)cc1)C(=O)N[C@@H](CC(C)C)C(=O)N[C@@H](C)C(=O)N[C@@H](C)C(=O)N[C@H](C(=O)N[C@@H](CC(C)C)C(=O)NCC(=O)N[C@@H](CCCCN)C(=O)N[C@@H](CCCNC(=N)N)C(=O)N[C@@H](Cc1ccc(O)cc1)C(=O)N[C@@H](CCCCN)C(=O)N[C@@H](CCC(N)=O)C(=O)N[C@@H](CCCNC(=N)N)C(=O)N[C@H](C(=O)N[C@@H](CCCCN)C(=O)N[C@@H](CC(N)=O)C(=O)N[C@@H](CCCCn1cc(C[C@H](NC(=O)CNC(=O)[C@H](CO)NC(=O)[C@H](CCCNC(=N)N)NC(=O)[C@H](CO)NC(=O)[C@H](CC(C)C)NC(=O)[C@H](CC(C)C)NC(=O)CNC(=O)[C@H](C)NC(=O)[C@H](CC(C)C)NC(=O)[C@H](CCCNC(=N)N)NC(=O)[C@H](Cc2c[nH]cn2)NC(=O)[C@@H](NC(=O)[C@@H](N)C(C)C)[C@@H](C)O)C(=O)N[C@H](C(=O)N[C@H](C(=O)N[C@@H](CCCCN)C(=O)N[C@@H](CC(N)=O)C(=O)N[C@@H](CC(N)=O)C(=O)N[C@@H](Cc2ccccc2)C(=O)N[C@H](C(=O)N2CCC[C@H]2C(=O)N[C@H](C(=O)N[C@@H](CC(N)=O)C(=O)N[C@H](C(=O)NCC(=O)N[C@@H](CO)C(=O)N[C@@H](CCCCN)C(=O)N[C@@H](C)C(=O)N[C@@H](Cc2ccccc2)C(N)=O)C(C)C)[C@@H](C)O)C(C)C)C(C)C)C(C)C)nn1)C(N)=O)C(C)C)C(C)C)C(C)C | Pituitary adenylate cyclase-activating polypeptide type I receptor (ADCYAP1R1, Homo sapiens, UniProt P41586) | cAMP accumulation, antagonist |  | together with: VIP |  | Kb | 33.9 nM |
| COc1ccccc1-c1n[nH]c2nc(NC3CCN(C(=O)Cc4ccc(F)cc4F)CC3)ncc12 |  | bead binding, competition bead pull-down, item: LINJ.32.2780 | Leishmania donovani axenic amastigote extract | 10 µM | reference: vehicle | relative abundance | 0.92 |
| CC(C)(C)C(=O)OCOP(=O)(OCOC(=O)C(C)(C)C)C1CCCN(O)C1=O (stereo not shown) | HL-60(TB) |  |  |  |  | Log10LC50 | > -4 log M |
